Published values collected from several papers.
Numbered parts are unrelated; each lists some results of a single study.

Sample 1
Target: Interferon regulatory factor 7, full length, phosphomimetic (IRF7, Homo sapiens, UniProt Q92985, residues 1-503, S471D/S472D/S475D/S476D/S477D/S483D/S484D/S487D)
Sequence of UniProt Q92985 (whole entry, unmodified, looked up): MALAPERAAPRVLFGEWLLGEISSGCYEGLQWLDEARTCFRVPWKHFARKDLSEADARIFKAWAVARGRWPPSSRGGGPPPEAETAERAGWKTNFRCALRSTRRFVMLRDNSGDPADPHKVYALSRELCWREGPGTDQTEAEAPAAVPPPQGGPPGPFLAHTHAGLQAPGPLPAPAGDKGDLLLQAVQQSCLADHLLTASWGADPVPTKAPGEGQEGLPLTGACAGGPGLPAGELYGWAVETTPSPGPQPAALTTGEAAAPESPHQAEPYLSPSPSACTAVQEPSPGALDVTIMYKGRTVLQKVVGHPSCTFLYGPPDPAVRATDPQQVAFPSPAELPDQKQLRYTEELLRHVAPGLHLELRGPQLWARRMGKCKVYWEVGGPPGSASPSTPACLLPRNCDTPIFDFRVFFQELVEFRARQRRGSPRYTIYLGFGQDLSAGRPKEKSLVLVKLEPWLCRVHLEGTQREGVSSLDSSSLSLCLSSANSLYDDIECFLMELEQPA
Method: protein-binding microarray
Form: double-stranded DNA, one strand shown
Sample: in vitro
Tested at: 2200 nM top
Notes: 60-bp whole probe
Added: salmon DNA 0.4 mg/ml
Reference: random background probes
Direction: higher = stronger binding
Shared flanks, not repeated: GCCTAGCAC … GTCTTGATTCGCTTGACGCTGCTG
| Oligonucleotide | fitted relative affinity [z-score] |
| --- | --- |
| TTAGGACAGGGACTGGGTTAGTGCTAG | -1.05 |
| TTCTAAACCATTTTGGTTTTGTGCTAG | 0.69 |
| GACGGTATCCATATCCTGACGTGCTAG | 0.946 |
| TCAAAGCTCCTATCTTATACTGTGCTA | 0.0827 |
| TTAGGTATCGACTATCGATTAGTGCTA | 0.202 |
| GAGAGAGCTTGTCTGCAGCCGTGCTAG | -0.526 |
| TTAGATTTCAGTGCCGATTAGTGCTAG | 0.175 |

Sample 2
Target: Histone acetyltransferase KAT6A, both winged helices, GST fusion (KAT6A, Homo sapiens, UniProt Q92794, residues 1-181)
Method: protein binding microarray
Form: double-stranded DNA, one strand shown
Sample: in vitro
Tested at: not given
Notes: 8-mer, flanks averaged, mean of 2 arrays, mostly near background
Reference: not given
Direction: higher = stronger binding
Residues (chain): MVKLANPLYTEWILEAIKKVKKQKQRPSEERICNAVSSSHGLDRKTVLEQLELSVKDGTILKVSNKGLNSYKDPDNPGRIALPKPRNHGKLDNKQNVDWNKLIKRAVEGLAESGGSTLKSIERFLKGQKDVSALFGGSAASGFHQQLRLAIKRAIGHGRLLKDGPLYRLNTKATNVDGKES
| Oligonucleotide | E-score |
| --- | --- |
| GATAGATC | -0.0336 |
| GGGTTACC | 0.137 |
| CATACTGG | -0.0254 |
| AGCCTTTC | -0.0147 |
| CCGTAAAG | 0.216 |
| ACTGGCTC | -0.164 |
| CTATCCGC | 0.238 |
| ATGCGAAA | 0.00605 |
| CTGGGTGC | -0.0535 |
| AGTAGTAG | -0.0686 |

Sample 3
Target: Sal-like protein 4, full length isoform A (SALL4, Homo sapiens, UniProt Q9UJQ4, residues 1-1053)
Sequence of UniProt Q9UJQ4 (whole entry, looked up): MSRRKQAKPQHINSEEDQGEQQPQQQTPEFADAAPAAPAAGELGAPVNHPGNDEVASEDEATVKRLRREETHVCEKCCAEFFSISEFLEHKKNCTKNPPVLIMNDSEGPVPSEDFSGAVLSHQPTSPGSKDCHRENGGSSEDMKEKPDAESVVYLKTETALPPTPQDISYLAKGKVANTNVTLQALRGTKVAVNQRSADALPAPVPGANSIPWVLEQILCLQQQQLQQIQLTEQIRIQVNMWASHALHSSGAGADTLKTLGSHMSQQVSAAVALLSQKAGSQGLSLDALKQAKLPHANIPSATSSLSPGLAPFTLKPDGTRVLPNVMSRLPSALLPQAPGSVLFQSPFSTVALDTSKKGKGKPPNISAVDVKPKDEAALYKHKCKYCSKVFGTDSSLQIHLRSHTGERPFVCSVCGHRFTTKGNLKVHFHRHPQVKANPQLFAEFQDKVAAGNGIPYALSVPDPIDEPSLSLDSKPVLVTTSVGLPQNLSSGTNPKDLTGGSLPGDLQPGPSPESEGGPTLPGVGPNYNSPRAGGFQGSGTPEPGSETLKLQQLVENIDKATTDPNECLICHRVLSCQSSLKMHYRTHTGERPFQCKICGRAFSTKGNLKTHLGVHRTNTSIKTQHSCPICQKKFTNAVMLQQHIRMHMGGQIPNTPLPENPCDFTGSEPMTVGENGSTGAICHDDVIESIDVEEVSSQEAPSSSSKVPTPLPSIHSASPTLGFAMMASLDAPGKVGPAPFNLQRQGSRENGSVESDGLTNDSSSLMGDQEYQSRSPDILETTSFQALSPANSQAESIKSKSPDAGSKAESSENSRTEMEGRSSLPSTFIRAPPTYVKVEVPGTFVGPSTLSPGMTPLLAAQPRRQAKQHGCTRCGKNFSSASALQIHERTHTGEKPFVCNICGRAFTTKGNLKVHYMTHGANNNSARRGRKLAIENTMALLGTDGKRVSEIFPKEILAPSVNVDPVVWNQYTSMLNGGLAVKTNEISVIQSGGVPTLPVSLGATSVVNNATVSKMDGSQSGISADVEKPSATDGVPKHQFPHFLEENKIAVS
Method: universal PBM
Form: double-stranded DNA, one strand shown
Sample: in vitro
Tested at: 600 nM
Notes: 8-mer, flanks averaged, mean of replicates
Direction: higher = stronger binding
| Oligonucleotide | E-score |
| --- | --- |
| CCCGAGTA | -0.0361 |
| ACGTTGCG | -0.0477 |
| GAATTCGA | 0.0368 |
| CCATTAGC | -0.0253 |
| ATTGATTG | 0.257 |
| ATCCCGGA | -0.169 |
| AATAGTCA | 0.137 |

Further values, each from its own experiment
| Molecule | target | assay | test system | setting | how to read | measurement | value |
| --- | --- | --- | --- | --- | --- | --- | --- |
| PhoQ, residues 284 288 289 292 302 303 NLALSC | PhoP, residues 12 14 15 18 19 MHTVL (Escherichia coli, UniProt P23836) | Sort-seq, refers to: YFP reporter | E. coli | PhoQ-PhoP variant library, added: 10 µM Mg2+ | reference: high Mg2+ state, higher = stronger signaling | fold induction | 2.07 |

Repeated from above (sample 2):
| Oligonucleotide | E-score |
| --- | --- |
| CCGTAAAG | 0.216 |
| ACTGGCTC | -0.164 |
| CTATCCGC | 0.238 |
